Assay results of several laboratories.
± marks the error that the study gave.
Chymotrypsin-C: Chymotrypsin-C (Homo sapiens, UniProt Q99895)
UniProt Q99895, sequence (whole entry, looked up): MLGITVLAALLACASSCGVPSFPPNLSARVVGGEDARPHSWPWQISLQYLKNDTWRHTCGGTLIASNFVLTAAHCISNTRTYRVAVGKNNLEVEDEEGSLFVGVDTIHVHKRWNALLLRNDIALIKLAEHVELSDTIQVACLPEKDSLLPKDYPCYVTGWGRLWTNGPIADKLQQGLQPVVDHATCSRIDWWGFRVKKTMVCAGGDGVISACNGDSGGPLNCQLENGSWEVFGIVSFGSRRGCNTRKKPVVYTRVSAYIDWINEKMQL
HTR2C: 5-hydroxytryptamine receptor 2C (HTR2C, Homo sapiens, UniProt P28335)
UniProt P28335, sequence (whole entry, looked up): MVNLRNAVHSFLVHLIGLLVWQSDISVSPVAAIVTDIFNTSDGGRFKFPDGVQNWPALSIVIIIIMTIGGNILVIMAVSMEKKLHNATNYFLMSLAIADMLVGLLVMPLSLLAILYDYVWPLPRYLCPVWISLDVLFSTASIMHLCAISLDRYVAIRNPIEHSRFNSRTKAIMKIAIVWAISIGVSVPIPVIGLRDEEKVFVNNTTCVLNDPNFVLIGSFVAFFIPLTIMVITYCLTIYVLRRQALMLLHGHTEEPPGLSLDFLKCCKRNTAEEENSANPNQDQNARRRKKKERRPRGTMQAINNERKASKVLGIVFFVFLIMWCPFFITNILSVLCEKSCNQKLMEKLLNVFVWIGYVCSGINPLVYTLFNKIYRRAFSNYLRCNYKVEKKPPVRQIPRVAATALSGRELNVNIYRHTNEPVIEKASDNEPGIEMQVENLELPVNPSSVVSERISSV
CA12: Carbonic anhydrase 12 (CA12, Homo sapiens, UniProt O43570)
UniProt O43570, sequence (whole entry, looked up): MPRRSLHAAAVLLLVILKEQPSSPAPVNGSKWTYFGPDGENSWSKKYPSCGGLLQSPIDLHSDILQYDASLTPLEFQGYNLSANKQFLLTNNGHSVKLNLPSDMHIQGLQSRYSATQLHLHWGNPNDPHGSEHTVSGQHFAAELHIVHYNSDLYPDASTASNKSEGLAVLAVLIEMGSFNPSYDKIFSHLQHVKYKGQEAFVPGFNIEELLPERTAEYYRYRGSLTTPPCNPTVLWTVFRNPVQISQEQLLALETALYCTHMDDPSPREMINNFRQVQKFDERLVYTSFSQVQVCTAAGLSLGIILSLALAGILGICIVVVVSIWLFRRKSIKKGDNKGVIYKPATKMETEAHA
CA2: Carbonic anhydrase 2 (CA2, Homo sapiens, UniProt P00918)
UniProt Q13547, sequence (whole entry, looked up): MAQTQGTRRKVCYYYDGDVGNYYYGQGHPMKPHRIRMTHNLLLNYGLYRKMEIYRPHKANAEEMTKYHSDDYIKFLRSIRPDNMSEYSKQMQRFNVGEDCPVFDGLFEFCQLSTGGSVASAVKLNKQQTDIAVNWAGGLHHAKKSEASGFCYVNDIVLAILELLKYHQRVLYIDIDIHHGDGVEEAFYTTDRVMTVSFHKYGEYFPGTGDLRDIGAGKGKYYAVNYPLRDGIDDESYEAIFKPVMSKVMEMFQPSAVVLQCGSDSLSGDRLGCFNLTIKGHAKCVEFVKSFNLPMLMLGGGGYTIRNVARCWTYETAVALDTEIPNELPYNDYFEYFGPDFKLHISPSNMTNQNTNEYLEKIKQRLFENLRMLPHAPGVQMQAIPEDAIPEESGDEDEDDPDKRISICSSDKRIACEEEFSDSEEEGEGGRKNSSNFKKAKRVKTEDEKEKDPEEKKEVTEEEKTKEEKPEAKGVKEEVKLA
UniProt P18089, sequence (whole entry, looked up): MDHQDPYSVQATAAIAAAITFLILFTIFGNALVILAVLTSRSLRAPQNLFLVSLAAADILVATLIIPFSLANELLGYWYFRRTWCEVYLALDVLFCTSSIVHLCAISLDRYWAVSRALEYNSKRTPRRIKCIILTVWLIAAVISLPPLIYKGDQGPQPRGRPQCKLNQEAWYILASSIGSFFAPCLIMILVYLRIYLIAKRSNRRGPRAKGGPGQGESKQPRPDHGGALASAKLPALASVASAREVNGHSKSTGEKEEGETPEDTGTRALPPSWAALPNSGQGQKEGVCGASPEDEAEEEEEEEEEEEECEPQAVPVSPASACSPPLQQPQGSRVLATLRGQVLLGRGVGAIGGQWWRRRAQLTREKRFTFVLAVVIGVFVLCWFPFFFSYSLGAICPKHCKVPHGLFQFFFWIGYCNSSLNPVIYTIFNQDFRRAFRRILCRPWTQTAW
UniProt P41143, sequence (whole entry, unmodified, looked up): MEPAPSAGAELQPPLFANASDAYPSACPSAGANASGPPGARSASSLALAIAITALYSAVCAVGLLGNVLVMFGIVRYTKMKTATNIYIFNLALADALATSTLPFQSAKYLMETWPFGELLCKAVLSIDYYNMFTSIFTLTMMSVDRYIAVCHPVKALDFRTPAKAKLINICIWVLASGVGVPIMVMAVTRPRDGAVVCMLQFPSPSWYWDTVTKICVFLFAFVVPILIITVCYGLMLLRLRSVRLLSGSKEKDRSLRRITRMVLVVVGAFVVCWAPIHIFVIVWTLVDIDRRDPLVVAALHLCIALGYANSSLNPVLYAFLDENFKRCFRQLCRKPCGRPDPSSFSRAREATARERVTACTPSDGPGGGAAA
UniProt Q62666, sequence (whole entry, looked up): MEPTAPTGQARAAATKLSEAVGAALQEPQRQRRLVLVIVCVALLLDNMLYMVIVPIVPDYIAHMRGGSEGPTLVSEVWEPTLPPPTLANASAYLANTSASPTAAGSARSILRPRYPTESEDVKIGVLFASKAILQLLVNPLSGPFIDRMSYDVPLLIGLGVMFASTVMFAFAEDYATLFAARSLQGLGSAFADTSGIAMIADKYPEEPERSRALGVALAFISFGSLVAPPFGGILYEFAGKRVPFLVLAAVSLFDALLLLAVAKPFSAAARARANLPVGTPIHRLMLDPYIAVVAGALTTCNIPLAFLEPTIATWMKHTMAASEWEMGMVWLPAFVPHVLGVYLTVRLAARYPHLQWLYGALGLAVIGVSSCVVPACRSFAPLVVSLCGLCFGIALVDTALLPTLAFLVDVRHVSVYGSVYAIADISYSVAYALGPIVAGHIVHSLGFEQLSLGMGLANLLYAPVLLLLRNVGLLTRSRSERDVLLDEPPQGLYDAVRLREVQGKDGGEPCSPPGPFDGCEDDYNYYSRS
UniProt P47901, sequence (whole entry, looked up): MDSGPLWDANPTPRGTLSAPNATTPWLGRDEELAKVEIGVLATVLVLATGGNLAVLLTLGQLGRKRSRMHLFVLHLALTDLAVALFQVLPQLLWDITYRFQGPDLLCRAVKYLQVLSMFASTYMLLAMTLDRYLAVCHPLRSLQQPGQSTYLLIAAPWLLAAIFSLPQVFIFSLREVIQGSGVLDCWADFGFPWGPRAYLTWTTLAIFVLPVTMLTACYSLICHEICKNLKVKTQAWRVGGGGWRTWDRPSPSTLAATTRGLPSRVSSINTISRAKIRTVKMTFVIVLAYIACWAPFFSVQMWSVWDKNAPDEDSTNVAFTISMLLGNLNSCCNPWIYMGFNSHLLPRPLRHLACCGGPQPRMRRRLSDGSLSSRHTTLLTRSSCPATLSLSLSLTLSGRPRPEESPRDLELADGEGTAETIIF

SMILES	target or system	test	system	conditions	measurement	result
CSCC[C@@H]1NC(=O)[C@H](Cc2ccccc2)NC(=O)[C@H]([C@@H](C)O)NC(=O)[C@@H]2CSSC[C@@H]3NC(=O)[C@H]([C@@H](C)O)NC(=O)[C@H](CC(N)=O)NC(=O)[C@H](CSSC[C@@H](C(=O)N[C@@H](CC(=O)O)C(=O)N[C@@H](CCC(N)=O)C(=O)O)NC(=O)[C@H](CC(C)C)NC1=O)NC(=O)[C@H](CCCCN)NC(=O)[C@H](CC(=O)O)NC(=O)[C@H](CCCCN)NC(=O)[C@H](Cc1ccccc1)NC(=O)[C@H]([C@@H](C)O)NC(=O)[C@H]([C@@H](C)O)NC(=O)CNC(=O)[C@@H]1CCCN1C(=O)[C@H](CCC(=O)O)NC(=O)[C@@H](NC(=O)[C@@H](NC(=O)[C@@H](NC(=O)[C@H](CCC(=O)O)NC(=O)[C@H](CO)NC(=O)CN)C(C)C)[C@@H](C)O)CSSC[C@H](NC(=O)[C@H](CCCNC(=N)N)NC3=O)C(=O)NCC(=O)N[C@@H](CO)C(=O)N[C@@H](CC(=O)O)C(=O)NCC(=O)N[C@@H](CCCCN)C(=O)N[C@@H](CO)C(=O)N[C@@H](C)C(=O)N[C@@H](Cc1ccc(O)cc1)C(=O)N2	Chymotrypsin-C	enzyme activity, inhibitor	–	–	Ki	1.4 ± 0.16 nM
O[C@H]1[C@H](n2cnc3c(N[C@@H](C4CCC4)C4CC4)nc(I)nc32)[C@H]2C[C@@]2(C(F)F)[C@H]1O	HTR2C	ligand displacement, radioligand	–	–	Ki	2750 nM
Cc1cc(O)cc(C)c1C[C@H](N)C(=O)N[C@H](CCCNC(=N)N)C(=O)N[C@@H](Cc1ccccc1)C(=O)N(C)CC(=O)N(C)Cc1cc(C(F)(F)F)cc(C(F)(F)F)c1	Delta-type opioid receptor (OPRD1, Homo sapiens, UniProt P41143, I277A)	–	–	–	Ki	6.14 ± 1.04 nM
Cc1cc(=O)oc2cc(OCCCCCC[Se]C#N)ccc12	CA12	enzyme activity, inhibitor, stopped-flow	–	–	Ki	77.6 nM
C[C@@H](Cc1ccsc1)NC(=O)NC[C@H](Cc1ccc(O)cc1)N(C)C	Alpha-2B adrenergic receptor (ADRA2B, Homo sapiens, UniProt P18089)	cell-free assay	–	–	Ki	7600 nM
CCCCCCCCCCCCCCN(O)C(=O)CCCCC[C@@H]1NC(=O)[C@H]2CCCN2C(=O)[C@H](Cc2ccccc2)NC(=O)[C@H](Cc2ccccc2)NC1=O	Histone deacetylase 1 (HDAC1, Homo sapiens, UniProt Q13547)	enzyme activity, inhibitor, fluorescence	–	–	Ki	18 nM
OC1Cc2ccccc2CC1N1CCC2(C=Cc3cc(Br)ccc32)CC1 (racemic)	Vesicular acetylcholine transporter (Rattus norvegicus, UniProt Q62666)	binding, radioligand displacement	PC12 expressing VAChT	together with: [3H]vesamicol	Ki	14 ± 1 nM
N[C@H]1CCSC1=O	CA12	CO2 hydration activity, inhibitor, stopped-flow CO2 hydration	–	room temperature preincubation	Ki	> 100000 nM
O=S(=O)(N/N=C/c1ccc(OS(=O)(=O)c2ccc(Cl)cc2)cc1)c1ccc(Cl)cc1	CA2	enzyme activity, inhibitor, absorbance	–	–	Ki	90.4 nM
O=C1c2ccccc2CCCN1CCCCN1CCN(c2cccc(Cl)c2Cl)CC1	HTR2C	ligand displacement, radioligand	–	–	Ki	317 nM
COc1ccc(S(=O)(=O)Oc2ccc(/C=N/NS(=O)(=O)c3ccc(Cl)cc3)cc2)cc1	CA2	enzyme activity, inhibitor, absorbance	–	–	Ki	414 nM
O=C1NC2(CC2)COc2ncc(F)cc2[C@H]2COCCN2c2ccn3ncc1c3n2	–	–	Sprague-Dawley rat, male, blood	oral, 20 mg/kg/day, 4 weeks, end of recovery, subacute toxicity	monocyte percentage	1.7 ± 0.5%
CC(C)C[C@@H]1NC(=O)[C@H](CC(C)C)NC(=O)[C@H](CC(C)C)NC(=O)[C@H]([C@@H](C)O)NC(=O)[C@@H]2CSSC[C@@H]3NC(=O)[C@H]([C@@H](C)O)NC(=O)[C@H](CC(N)=O)NC(=O)[C@H](CSSC[C@@H](C(=O)N[C@H](C(=O)N[C@@H](CCC(N)=O)C(=O)O)C(C)C)NC1=O)NC(=O)[C@H](CCCCN)NC(=O)[C@H](CC(=O)O)NC(=O)[C@H](CCCCN)NC(=O)[C@H](Cc1ccccc1)NC(=O)[C@H]([C@@H](C)O)NC(=O)[C@H]([C@@H](C)O)NC(=O)CNC(=O)[C@@H]1CCCN1C(=O)[C@H](CCC(=O)O)NC(=O)[C@@H](NC(=O)[C@@H](NC(=O)[C@@H](NC(=O)[C@H](CCC(=O)O)NC(=O)[C@H](CO)NC(=O)CN)C(C)C)[C@@H](C)O)CSSC[C@H](NC(=O)[C@H](CCCNC(=N)N)NC3=O)C(=O)NCC(=O)N[C@@H](CO)C(=O)N[C@@H](CC(=O)O)C(=O)NCC(=O)N[C@@H](CCCCN)C(=O)N[C@@H](CO)C(=O)N[C@@H](C)C(=O)N[C@@H](Cc1c[nH]c3ccccc13)C(=O)N2	Chymotrypsin-C	enzyme activity, inhibitor	–	–	Ki	11.1 ± 3.49 nM
CC(C)[C@@H]1NC(=O)[C@H](Cc2ccccc2)NC(=O)[C@H](Cc2ccc(O)cc2)NC(=O)CCSSCCC(=O)N[C@@H](Cc2ccc(O)cc2)C(=O)N[C@@H](Cc2ccccc2)C(=O)N[C@@H](C(C)C)C(=O)N[C@@H](CC(N)=O)C(=O)N[C@H](C(=O)N2CCC[C@H]2C(=O)N[C@H](CCCNC(=N)N)C(=O)NCC(N)=O)CSSC[C@@H](C(=O)N2CCC[C@H]2C(=O)N[C@H](CCCNC(=N)N)C(=O)NCC(N)=O)NC(=O)[C@H](CC(N)=O)NC1=O	Vasopressin V1b receptor (AVPR1B, Homo sapiens, UniProt P47901)	ligand displacement, radioligand	–	–	Ki	3.3 nM
O=S(=O)(N/N=C/c1ccc(OS(=O)(=O)c2cc(Cl)ccc2Cl)cc1)c1cc(Cl)ccc1Cl	CA2	enzyme activity, inhibitor, absorbance	–	–	Ki	18.5 nM
COC1c2cc(C(C)C)c(O)c(O)c2C23CCCC(C)(C)C2C1OC3=O (stereo not shown)	CA2	enzyme activity, inhibitor	–	–	Ki	3.3 nM
N[C@H]1CCOC1=O	CA2	CO2 hydration activity, inhibitor, stopped-flow CO2 hydration	–	room temperature preincubation	Ki	> 100000 nM
Cc1c(Cl)c(=O)oc2cc(OCCCCCC[Se]C#N)ccc12	CA2	enzyme activity, inhibitor, stopped-flow	–	–	Ki	> 100000 nM
CSCC[C@@H]1NC(=O)[C@H](CCSC)NC(=O)[C@H]([C@@H](C)O)NC(=O)[C@@H]2CSSC[C@@H]3NC(=O)[C@H]([C@@H](C)O)NC(=O)[C@H](CC(N)=O)NC(=O)[C@H](CSSC[C@@H](C(=O)N[C@@H](CC(=O)O)C(=O)N[C@@H](CCC(N)=O)C(=O)O)NC(=O)[C@H](CC(C)C)NC1=O)NC(=O)[C@H](CCCCN)NC(=O)[C@H](CC(=O)O)NC(=O)[C@H](CCCCN)NC(=O)[C@H](Cc1ccccc1)NC(=O)[C@H]([C@@H](C)O)NC(=O)[C@H]([C@@H](C)O)NC(=O)CNC(=O)[C@@H]1CCCN1C(=O)[C@H](CCC(=O)O)NC(=O)[C@@H](NC(=O)[C@@H](NC(=O)[C@@H](NC(=O)[C@H](CCC(=O)O)NC(=O)[C@H](CO)NC(=O)CN)C(C)C)[C@@H](C)O)CSSC[C@H](NC(=O)[C@H](CCCNC(=N)N)NC3=O)C(=O)NCC(=O)N[C@@H](CO)C(=O)N[C@@H](CC(=O)O)C(=O)NCC(=O)N[C@@H](CCCCN)C(=O)N[C@@H](CO)C(=O)N[C@@H](C)C(=O)N[C@@H](Cc1ccc(O)cc1)C(=O)N2	Chymotrypsin-C	enzyme activity, inhibitor	–	–	Ki	1.76 ± 0.35 nM
COc1cc2c(cc1O)C(CCc1ccc(Cl)cc1)N(C)CC2 (stereo not shown)	Glutamate NMDA receptor; Grin1/Grin2b (Grin1/Grin2b, Rattus norvegicus, UniProt P35439+Q00960)	ligand displacement, radioligand	–	–	Ki	17 nM
CC(C)[C@H](N)C(=O)N[C@@H](CC(N)=O)C(=O)N[C@@H](Cc1ccc(O)cc1)C(=O)N[C@@H](CC(=O)O)C(=O)O	Angiotensin-converting enzyme (ACE, Homo sapiens, UniProt P12821)	enzyme activity, inhibitor, absorbance	–	–	Ki	474000 nM
O=[N+]([O-])c1ccc(S(=O)(=O)Oc2ccc(/C=N/NS(=O)(=O)c3cc(Cl)ccc3Cl)cc2)cc1	CA2	enzyme activity, inhibitor, absorbance	–	–	Ki	17.5 nM

For quick reference, copied from above:
SMILES	target or system	test	system	conditions	measurement	result
N[C@H]1CCSC1=O	CA12	CO2 hydration activity, inhibitor, stopped-flow CO2 hydration	–	room temperature preincubation	Ki	> 100000 nM
CSCC[C@@H]1NC(=O)[C@H](Cc2ccccc2)NC(=O)[C@H]([C@@H](C)O)NC(=O)[C@@H]2CSSC[C@@H]3NC(=O)[C@H]([C@@H](C)O)NC(=O)[C@H](CC(N)=O)NC(=O)[C@H](CSSC[C@@H](C(=O)N[C@@H](CC(=O)O)C(=O)N[C@@H](CCC(N)=O)C(=O)O)NC(=O)[C@H](CC(C)C)NC1=O)NC(=O)[C@H](CCCCN)NC(=O)[C@H](CC(=O)O)NC(=O)[C@H](CCCCN)NC(=O)[C@H](Cc1ccccc1)NC(=O)[C@H]([C@@H](C)O)NC(=O)[C@H]([C@@H](C)O)NC(=O)CNC(=O)[C@@H]1CCCN1C(=O)[C@H](CCC(=O)O)NC(=O)[C@@H](NC(=O)[C@@H](NC(=O)[C@@H](NC(=O)[C@H](CCC(=O)O)NC(=O)[C@H](CO)NC(=O)CN)C(C)C)[C@@H](C)O)CSSC[C@H](NC(=O)[C@H](CCCNC(=N)N)NC3=O)C(=O)NCC(=O)N[C@@H](CO)C(=O)N[C@@H](CC(=O)O)C(=O)NCC(=O)N[C@@H](CCCCN)C(=O)N[C@@H](CO)C(=O)N[C@@H](C)C(=O)N[C@@H](Cc1ccc(O)cc1)C(=O)N2	Chymotrypsin-C	enzyme activity, inhibitor	–	–	Ki	1.4 ± 0.16 nM
